# Results pooled from the literature.
# Numbered parts are unrelated; each lists some results of a single study. Changes are numbered by the printed parent chain.

# Series 1
# Target: Ras GTPase-activating protein-binding protein 1, full length (G3BP1, Homo sapiens, UniProt Q13283)
# Chain of UniProt Q13283 (whole entry, looked up): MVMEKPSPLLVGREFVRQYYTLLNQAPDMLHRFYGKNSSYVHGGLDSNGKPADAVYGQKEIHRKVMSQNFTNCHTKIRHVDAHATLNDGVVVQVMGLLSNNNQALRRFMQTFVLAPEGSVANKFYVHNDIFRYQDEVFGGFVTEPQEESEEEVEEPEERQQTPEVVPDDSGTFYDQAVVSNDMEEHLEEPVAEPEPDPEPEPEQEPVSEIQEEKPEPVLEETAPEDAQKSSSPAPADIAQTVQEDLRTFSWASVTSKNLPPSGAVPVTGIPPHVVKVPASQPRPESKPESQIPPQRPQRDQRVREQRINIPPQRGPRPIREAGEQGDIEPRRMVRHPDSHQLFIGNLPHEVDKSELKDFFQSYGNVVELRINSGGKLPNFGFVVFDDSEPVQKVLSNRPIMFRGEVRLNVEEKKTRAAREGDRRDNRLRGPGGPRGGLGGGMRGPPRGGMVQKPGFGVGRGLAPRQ
# Method: RNA Bind-n-Seq
# Molecule type: RNA
# Sample: in vitro
# Tested at: 200 nM
# Setting: whole 134-nt RNA, ends assumed
# Added: 150 mM KCl
# Reference: input library
# Reading: higher = stronger binding
# Shared flanks, not repeated: GGGAGUUCUACAGUCCGACGAUC … UGGAAUUCUCGGGUGUCAAGG
Oligonucleotide,log2 enrichment
UAACUUUAGAGGAGGAUCUGAUGGAGAUGGCAGUGGACGUGGAUUUGGGGAUGGCUAUAAUGGGUAUGGAGGAGGACCUGGAGGUGGCAA,0.544
UCAAGUCCUGUGCUACACAUCGUAUGUACCGAAUCGGGAAGGGGAAGGGGAAGGAAAGUAUUAUGUUACGCCGUUCGGAUCUGCACUUCC,-0.0212
CACAGACAACACGCACCCACACAGACACAGAGGGAAGGGUUUGGGAUGGGGACAGGGUGCACAGCAGGGCGGGGUAGGACCCCAGCCCCU,1.99
UGGCCCUGGUGGGAUGCGGGGAGGAAGAGGUGGCCUCAUGGAUCGUGGUGGUCCCGGUGGAAUGUUCAGAGGUGGCCGUGGUGGAGACAG,0.554
UGGCCCUGGUGGCAUGCGGGGAGGAAGAGAUGGCCUCAUGGAUCGUGGUGGUCCCGGUGGAAUGUUCAGAGGUGGCCGUGGUGGAGACAG,0.135
GUCCUGUGCUACACAUCGUAUGUACCGAAUCGGGUUUUUGGGGUUUUUGGUUUUUGGGAAAGUAUUAUGUUACGCCGUUCGGAUCUGCAC,-0.694
CCUGUGCUACACAUCGUAUGUACCGAAUCAAACCCCCCCAAAUUUUUUUAAACCCCCAAAAAAGUAUUAUGUUACGCCGUUCGGAUCUGC,0.178
AGUCCUGUGCUACACAUCGUAUGUACCGAAUCGGGAAAAGGGAAAAGGGGAAAAGGGAAAGUAUUAUGUUACGCCGUUCGGAUCUGCACU,-0.0733
UCAUUCUAUACAGCCUUUUGUUUCAUUAGGAUCAGGCAGCUAGAGACAUGAAGAGGCUUGAAGAAAAGGACAAGGAAAGAAAAAACGUAA,-1.69

# Series 2
# Target: Interferon regulatory factor 3, full length, phosphomimetic (IRF3, Homo sapiens, UniProt Q14653, residues 1-427, S386D/S396D/S398D/S402D/T404D/S405D)
# Chain of UniProt Q14653 (whole entry, unmodified, looked up): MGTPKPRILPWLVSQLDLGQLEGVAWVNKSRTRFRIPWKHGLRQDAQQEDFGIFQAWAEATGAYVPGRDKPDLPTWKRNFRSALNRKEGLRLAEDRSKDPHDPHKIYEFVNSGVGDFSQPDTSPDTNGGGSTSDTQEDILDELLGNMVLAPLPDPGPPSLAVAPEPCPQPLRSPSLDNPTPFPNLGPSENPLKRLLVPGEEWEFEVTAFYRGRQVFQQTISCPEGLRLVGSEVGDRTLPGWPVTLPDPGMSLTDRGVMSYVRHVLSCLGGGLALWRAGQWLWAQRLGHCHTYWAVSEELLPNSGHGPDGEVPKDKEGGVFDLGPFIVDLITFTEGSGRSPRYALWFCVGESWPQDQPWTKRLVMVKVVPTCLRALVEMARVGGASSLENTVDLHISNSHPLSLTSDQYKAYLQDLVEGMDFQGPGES
# Method: protein-binding microarray
# Molecule type: double-stranded DNA, one strand shown
# Sample: in vitro
# Tested at: 2540 nM top
# Setting: 60-bp whole probe
# Added: salmon DNA 0.4 mg/ml
# Reference: random background probes
# Reading: higher = stronger binding
# Shared flanks, not repeated: GCCTAGCAC … GTCTTGATTCGCTTGACGCTGCTG
Oligonucleotide,fitted relative affinity [z-score]
CCAGTGCTTGCTCCCCTGCAGTGCTAG,-0.536
CCCTTTTCATGCTCTTATATAGTGCTA,3.43
GACGATTTCAGTCTCGCGACGTGCTAG,2.18
TCATATTTGCTTCAGGTACTGTGCTAG,0.741
GACGGTTTCCTACTGCTGGCGTGCTAG,5.72
CAAGTGGAGCCCAGGCCAGAGTGCTAG,-0.71
TTAGGACTGGGTATCGGTTAGTGCTAG,0.475
GACGGTCTCGCTATCGGGACGTGCTAG,0.644
TTAGAAGTGAGACTGGATTAGTGCTAG,-0.476
TTAGATATCCGTTTCGATTAGTGCTAG,4.96
TTAGGTCTCCTTATCCTGTAGTGCTAG,2.72
GACGATATCAGTATCGACACGTGCTAG,1.27
CTGGACCCACTTCCAAATGGGTGCTAG,0.626
CAGGAATTGAAAATTAGTGTTGTGCTA,-0.41
TATTCTCTACTTGTGTCTAGGTGCTAG,1.41
CTTGGTAAATTTAGCCGACGGTGCTAG,-0.328
GACGGTATCATTATCCTGACGTGCTAG,2.92
TTAGGACTTGACTATCGGTTAGTGCTA,-0.464
GACGGTTTCCACTATCGGGACGTGCTA,3.62

# Series 3
# Target: Centromere-binding protein 1, full length, N-terminal tag (CBF1, Saccharomyces cerevisiae, UniProt P17106, residues 1-351)
# Chain of UniProt P17106 (whole entry, looked up): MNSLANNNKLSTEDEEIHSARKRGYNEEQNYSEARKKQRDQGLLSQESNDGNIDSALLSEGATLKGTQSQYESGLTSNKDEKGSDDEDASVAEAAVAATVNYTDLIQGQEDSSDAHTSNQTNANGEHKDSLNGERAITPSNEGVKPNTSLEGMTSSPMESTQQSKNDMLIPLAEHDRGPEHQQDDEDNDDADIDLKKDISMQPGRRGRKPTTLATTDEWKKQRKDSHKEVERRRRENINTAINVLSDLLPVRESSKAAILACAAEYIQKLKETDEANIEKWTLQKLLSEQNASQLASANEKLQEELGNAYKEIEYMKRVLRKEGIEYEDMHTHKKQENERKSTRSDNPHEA
# Method: protein-binding microarray
# Molecule type: double-stranded DNA, one strand shown
# Sample: in vitro
# Tested at: 0.8 µM
# Setting: whole 60-bp probe, no competitor
# Reading: higher = stronger binding
# Shared flanks, not repeated: … GTCTTGATTCGCTTGACGCTGCTG
Oligonucleotide,fluorescence intensity
CTATGTGAACAACGTGAGGTAATTCCATGGAAATTC,683 a.u.
CTAATACACTTTTATCATGTGAAGATTGAAAGGTTC,833 a.u.
GAAGTGACGCTGTTTCATGAGACTTTAGCCCTTTAG,495 a.u.
GAATCGATTCTTTATCAGCTGTTATATACCCATTAG,662 a.u.
CTAGTGTCAGCATGTGGGGTGAGGATAATGAGTTTC,614 a.u.
CTAGACCATACTATCCAGGTGAGTTTGTCATGGTTC,525 a.u.
CCTAACTACTATAACCACACCTGATAGCTTCGTACA,609 a.u.
CTAAGCCTCCATCATTACGTCACAAGTGTTATCTTC,583 a.u.
CTAGCGAAGCTTCCTCACATGGAAAAGGCTTCTTTC,499 a.u.
GAATCAACTTACTAACAGGTGACCTTATCGGTCTAG,1480 a.u.
CTATACGTCAGATCACTGATGATGAACTCACCTTTC,518 a.u.
GAAAGACAAAATATCAACGTGTTTTATTTATACTAG,592 a.u.
CTAGGCAAAATGTGGAGCACGAAAAAATATAAATTC,563 a.u.
CTAAGGCCCTTAGATCTCACATGATGCTTGACTTTC,981 a.u.
GAACTTGCATTGGCAGGTGAGAAATGAATACTATAG,527 a.u.
CTAGATTATTGTTACCTCGTCACCTGTTATCGGTTC,1760 a.u.
CTAACCTGGGTTTCCTGCACCACCAGCCCCCATTTC,457 a.u.
GAATTAAAACGGTATCACGTTTAAATATGTGACTAG,1320 a.u.
GAATATAATCACATTTCAAATATATCACGTGTTTAG,12900 a.u.

# Series 4
# Target: CCNE2, cyclin fold, Cln2 fusion (human)
# Method: yeast growth competition, sequencing
# Sample: yeast
# Setting: weak parent motif
# Reference: not given
# Reading: higher = stronger binding
# Parent: AKAP12 docking peptide (human); GSPLKKLFTSTGL; partner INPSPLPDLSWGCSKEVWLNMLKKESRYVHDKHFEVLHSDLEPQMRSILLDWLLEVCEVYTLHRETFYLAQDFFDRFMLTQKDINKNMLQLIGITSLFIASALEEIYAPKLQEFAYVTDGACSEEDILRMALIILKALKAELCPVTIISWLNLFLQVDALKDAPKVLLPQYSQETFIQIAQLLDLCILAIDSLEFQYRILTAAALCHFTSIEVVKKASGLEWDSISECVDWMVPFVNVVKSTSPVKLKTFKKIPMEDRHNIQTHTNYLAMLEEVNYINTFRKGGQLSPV
Change,normalised enrichment score
GSPLKKLLTSTGL [F8L],0.191
GSPLKKLATSTGL [F8A],0.161
GSPLKALFTSTGL [K6A],-0.0107
GSPLKKLFTSTAL [G12A],-0.372
GSPLKKLFTSTGA [L13A],0.0721
GSALKKLFTSTGL [P3A],0.963
GAPLKKLFTSTGL [S2A],1.16

# Mixed results
Molecule,target,test,system,conditions,scale,endpoint,result
"PhoQ, residues 284 288 289 292 302 303 SQSLSM","PhoP, residues 12 14 15 18 19 TQAIL (Escherichia coli, UniProt P23836)","Sort-seq, measured: YFP reporter",E. coli,"PhoQ-PhoP variant library, added: 10 µM Mg2+","reference: high Mg2+ state, higher = stronger signaling",fold induction,19.2

# Repeated from above (series 1):
Oligonucleotide,log2 enrichment
UAACUUUAGAGGAGGAUCUGAUGGAGAUGGCAGUGGACGUGGAUUUGGGGAUGGCUAUAAUGGGUAUGGAGGAGGACCUGGAGGUGGCAA,0.544
UCAAGUCCUGUGCUACACAUCGUAUGUACCGAAUCGGGAAGGGGAAGGGGAAGGAAAGUAUUAUGUUACGCCGUUCGGAUCUGCACUUCC,-0.0212
CACAGACAACACGCACCCACACAGACACAGAGGGAAGGGUUUGGGAUGGGGACAGGGUGCACAGCAGGGCGGGGUAGGACCCCAGCCCCU,1.99
UGGCCCUGGUGGGAUGCGGGGAGGAAGAGGUGGCCUCAUGGAUCGUGGUGGUCCCGGUGGAAUGUUCAGAGGUGGCCGUGGUGGAGACAG,0.554
UGGCCCUGGUGGCAUGCGGGGAGGAAGAGAUGGCCUCAUGGAUCGUGGUGGUCCCGGUGGAAUGUUCAGAGGUGGCCGUGGUGGAGACAG,0.135
GUCCUGUGCUACACAUCGUAUGUACCGAAUCGGGUUUUUGGGGUUUUUGGUUUUUGGGAAAGUAUUAUGUUACGCCGUUCGGAUCUGCAC,-0.694
CCUGUGCUACACAUCGUAUGUACCGAAUCAAACCCCCCCAAAUUUUUUUAAACCCCCAAAAAAGUAUUAUGUUACGCCGUUCGGAUCUGC,0.178
AGUCCUGUGCUACACAUCGUAUGUACCGAAUCGGGAAAAGGGAAAAGGGGAAAAGGGAAAGUAUUAUGUUACGCCGUUCGGAUCUGCACU,-0.0733
UCAUUCUAUACAGCCUUUUGUUUCAUUAGGAUCAGGCAGCUAGAGACAUGAAGAGGCUUGAAGAAAAGGACAAGGAAAGAAAAAACGUAA,-1.69
